Published values of several laboratories.
Compare with care: the assays were run in different laboratories. Values joined by “and” are separate records of one study, mostly repeats; a detail may differ.
TDP1: Tyrosyl-DNA phosphodiesterase 1 (TDP1, Homo sapiens, UniProt Q9NUW8)
Sequence of UniProt Q9NUW8 (whole entry, looked up): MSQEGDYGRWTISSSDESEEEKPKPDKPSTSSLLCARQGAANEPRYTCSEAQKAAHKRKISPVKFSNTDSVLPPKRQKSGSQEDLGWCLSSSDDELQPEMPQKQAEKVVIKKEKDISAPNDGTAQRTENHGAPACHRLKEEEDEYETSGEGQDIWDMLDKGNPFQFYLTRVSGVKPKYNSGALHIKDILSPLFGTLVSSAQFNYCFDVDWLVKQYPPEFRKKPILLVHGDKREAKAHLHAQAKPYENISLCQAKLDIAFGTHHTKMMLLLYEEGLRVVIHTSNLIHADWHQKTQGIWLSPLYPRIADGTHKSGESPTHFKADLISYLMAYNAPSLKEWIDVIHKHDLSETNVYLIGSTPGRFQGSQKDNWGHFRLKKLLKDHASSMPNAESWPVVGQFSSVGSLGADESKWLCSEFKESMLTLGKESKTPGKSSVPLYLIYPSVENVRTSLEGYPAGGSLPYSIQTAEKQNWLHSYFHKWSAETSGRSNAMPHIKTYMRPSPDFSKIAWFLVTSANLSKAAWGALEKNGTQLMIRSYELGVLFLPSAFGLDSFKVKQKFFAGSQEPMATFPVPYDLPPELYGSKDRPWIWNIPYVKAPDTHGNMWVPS
RIPK2: Receptor-interacting serine/threonine-protein kinase 2 (RIPK2, Homo sapiens, UniProt O43353)

Compound	target	test	conditions	scale	measurement	value
C=CCOc1ccc(C=NOCc2ccc3nc(-c4ccccc4)c(Nc4ccc(C(=O)O)cc4)n3c2)cc1I (mixture of isomers)	TDP1	enzyme activity, inhibitor	100 µM, unpurified compound		inhibition	4.4%
CCN1CCN(Cc2ccc(NC(=O)c3ccc(C)c(NC(=O)c4cncc(-c5cccs5)c4)c3)cc2C(F)(F)F)CC1	RIPK2	binding, competition with immobilised ligand	1 µM		remaining binding	16%
COc1cc(Nc2nc(C)cc(-c3cnn4nc(OC)ccc34)n2)cc(C(F)(F)F)c1	RIPK2	binding, competition with immobilised ligand	1 µM		remaining binding	100%
COc1c(Cl)cccc1Nc1c(-c2ccncc2C#C[C@@]2(C)CCCN2C(=O)/C=C/CN(C)C)[nH]c2c1C(=O)NCC2	RIPK2	binding, competition with immobilised ligand	3 µM		remaining binding	73%
COCC12C(=O)NC3C4(C(OC)CC1O)C1CC5(O)C(OC)C(O)C(OC(C)=O)(C1C5OC(=O)c1ccccc1)C3(O)C(OC)C24 (stereo not shown)	RIPK2	kinase activity, inhibitor, ProQinase kinase profiling	25 µM	reference: control	remaining activity	102% and 97%
CN1CC[C@@H](COc2cnc(C#N)cc2-c2ccn3nc(NC(=O)C4CC4)cc3c2)C1	RIPK2	enzyme activity, inhibitor	1 µM		inhibition	69%
CNC(=O)C[C@H](Cc1ccc(C#N)cc1)NC(=O)c1cc(-c2ccc(CN[C@H](C)c3ccc(C)cc3)o2)ccc1Cl	RIPK2	enzyme activity, inhibitor	1 µM		activity vs control	98%
COc1ccc(NC(=O)Nc2ccc3c(c2)C(=O)N(C(C)CO)CC(C)C(CN(C)Cc2ccc4c(c2)OCO4)O3)cc1 (stereo not shown)	RIPK2	kinase activity, KinaseProfiler	0.03 µM, species human	reference: control	remaining activity	92%
Cc1nc2c(F)cc(-c3nc(Nc4ccc(CNC(=O)CCCCCCC(=O)NO)cc4)ncc3F)cc2n1C(C)C	RIPK2	enzyme activity, inhibitor	1 µM		inhibition	77%
C=CC(=O)N1Cc2nc(-c3cc(-c4cc(Cl)cnc4Cl)c(F)cc3F)n(-c3ccncn3)c2C1	RIPK2	cell-free assay, inhibitor	1 µM		inhibition	-4.6%
Cc1cncc(Oc2ccc(C=NOCc3ccc(-c4nc5cc(-c6ccccc6)ccn5c4Nc4ccc(C(=O)O)cc4)cc3)cc2)n1	TDP1	enzyme activity, inhibitor	100 µM		inhibition	99.5%
NC(=O)[C@@H](O)C[C@H]1CCc2sc3ncnc(O[C@H]4CC[C@H](N5CCOCC5)CC4)c3c21	RIPK2	enzyme activity, inhibitor	10 µM		inhibition	60%
C=CC(=O)Nc1cccc(-c2cnc3[nH]cc(C(=O)NC(C)(C)C)c3n2)c1	RIPK2	kinase activity	0.1 µM		inhibition	4% and 0%
O=C=[N][Ru-4]123([n]4c5ccc(O)cc5c5c6c(c7cc(F)c[n+]1c7c54)C(=O)NC6=O)[S+]1CC[S+]2CC[S+]3CC1 (stereo not shown)	RIPK2	enzyme activity	100 nM, human enzyme, together with: 10 µM ATP	reference: untreated	remaining activity	87%
CCn1cc(C(=O)O)c(=O)c2c(N)c(F)c(NC3CCCCC3)cc21	RIPK2	kinase activity	0.1 µM, together with: ATP at Km		inhibition	2.9%
Cc1cccc(O[C@H]2CCC[C@@H](C(C)CNCc3ccncc3)C2)c1 (relative stereo)	RIPK2	enzyme activity, inhibitor	10 µM		inhibition	-2%
CCN1CCN(Cc2ccc(C(=O)Nc3ccc(C)c(NCc4cnc5[nH]ccc5c4OC)c3)cc2C(F)(F)F)CC1	RIPK2	binding, competition with immobilised ligand	1 µM		remaining binding	9.6%
C=CC(=O)N1CCCC(n2c(=O)c3ncccc3n(Cc3ccc(Oc4ccccc4)cc3)c2=O)C1 (stereo not shown)	RIPK2	cell-free assay, competition with immobilised ligand	1 µM		remaining binding	98%
COc1c(OCCCN2CCOCC2)ccc2c1N=C(NC(=O)c1cnc(N)nc1)N1CCN=C21	RIPK2	kinase activity, inhibitor	1 µM	reference: untreated control	remaining activity	111%

Excerpt of the above:
Compound	target	test	conditions	scale	measurement	value
COc1c(Cl)cccc1Nc1c(-c2ccncc2C#C[C@@]2(C)CCCN2C(=O)/C=C/CN(C)C)[nH]c2c1C(=O)NCC2	RIPK2	binding, competition with immobilised ligand	3 µM		remaining binding	73%
